# Measurements pooled from the literature.
# Parts stem from different laboratories: compare values within a part only.

# Set 1
# Target: RING finger protein unkempt homolog, zinc fingers 1-6, SBP tag (UNK, Homo sapiens, UniProt Q9C0B0, residues 30-357)
# UniProt Q9C0B0, sequence (30-357, looked up): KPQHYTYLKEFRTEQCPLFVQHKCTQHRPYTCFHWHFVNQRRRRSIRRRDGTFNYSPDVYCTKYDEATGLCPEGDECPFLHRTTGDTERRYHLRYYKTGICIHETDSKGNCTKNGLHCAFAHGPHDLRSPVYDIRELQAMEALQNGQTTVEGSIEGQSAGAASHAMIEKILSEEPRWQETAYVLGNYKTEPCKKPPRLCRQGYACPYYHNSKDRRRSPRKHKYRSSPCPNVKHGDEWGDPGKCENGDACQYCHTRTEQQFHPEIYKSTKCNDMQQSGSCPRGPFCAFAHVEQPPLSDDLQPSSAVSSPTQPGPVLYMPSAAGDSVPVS
# Method: RNA Bind-n-Seq
# Molecule type: RNA
# Medium: in vitro
# Concentration: 100 nM
# Setting: RNA with constant flanks, vertebrate orthologous sites, ends assumed
# Reference: input RNA pool
# Direction: higher = stronger binding
Strand,bound/input enrichment [ratio]
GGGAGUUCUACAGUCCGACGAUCGGAACCUAUUCGCCACUCCCGAUGCGUGCCUGGGGUGAAGCAUCCACCAGCACUGCGAGGGGGUCCAUAGUAUUUUGUUGGCUGCCUCAGAGUCCCCAAAGCCUUCAAGCAGACAUGGCACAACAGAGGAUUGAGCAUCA,0.484
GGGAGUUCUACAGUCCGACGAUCAAGAUGGUGGUUGUACAUUAUUUCAUUUAGAAAAUAUAAAAAUUCAUUUUGUUUUGAAGCUAGGUGUUAAACUGGAGUAGCUAUAUUAUACCCCUAGAGAAUGGGGCAGUUGUGCCCUUCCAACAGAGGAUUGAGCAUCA,2.93
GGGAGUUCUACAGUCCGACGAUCAAAAUUCAGUAGAAUUACACUAAUACUGAAGUUACCGUUGAAAAGAUAUCCAAGUGUGUGUUGAUAGUUACUAAAAGAAGUAUAGCUGUUAUUGCCUUGUAUUUAUAUCCCUUGUUUCAGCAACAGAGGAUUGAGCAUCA,0.484
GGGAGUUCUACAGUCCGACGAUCGUAUUCGUUCCAUACCAGCAUAUAACCUCUCGUUUGUGCACAGCUUCAAAUGUUACCGUCUAGUAAGAUUUUUAUUUAAAAUAUGAAAACUGCUUUUCCAAGACGUUUUUAAAAACAAAGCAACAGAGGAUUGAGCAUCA,0.488
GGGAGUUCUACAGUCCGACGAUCCAGAGCAGCAUGGGCUGUUGAGCUGUGGAAAAAUGAGCUUUGCAUUUUUGUAUAUUUAAAUAGGAUACUUUUAUAUGAUGGGUGCUUCGAGUGUGAAUGCAGCAGGUUCUCCUUUUCAGACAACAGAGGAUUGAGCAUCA,1.4
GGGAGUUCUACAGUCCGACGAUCGUUAAUGAUCAUAUCAUAUGUAGAGAAAAAAUUUUCAUUGUCCCCAUUGUGAAAUUUAUUUAGAAUCUUCAUUUUUCUCAUUCAGGCUCACUGUAUUAGUUAUUUUUAGUCCAUAAUUAACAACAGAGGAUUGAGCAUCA,2.29
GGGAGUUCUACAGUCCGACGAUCACAGCCCUCUUCUUAAGCUGGUGUUUUCACACACUAGGAAGCUAUUAUUGUUUUUCACAGUCUAGUACCUGGUUUUUACAUGGAAGACUAAACUCAUGCUUAUAGCUAAAUGUGGUCUUUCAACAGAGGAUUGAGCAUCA,0.472
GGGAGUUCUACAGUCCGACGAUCUGUGAGCGUCUACAGACGGCUCACCAUUUUUGUCCUGUAUCUGUAAACACUUUUUGUUCUUAGUCUUUUUCUUGUAAAAUUGAUGUUCUUUAAAAUCGUUAAUGUAUAACAGGGCUUAUGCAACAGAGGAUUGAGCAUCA,0.306

# Set 2
# Target: Fragile X messenger ribonucleoprotein 1, C-terminal low-complexity region (Fmr1, Mus musculus, UniProt P35922)
# Method: RNA Bind-n-Seq
# Molecule type: RNA
# Medium: in vitro
# Concentration: 200 nM
# Setting: whole 134-nt RNA, ends assumed
# Together with: 150 mM LiCl
# Reference: input library
# Direction: higher = stronger binding
# Each molecule: 7-deaza-guanosine replaces G
Strand,log2 enrichment
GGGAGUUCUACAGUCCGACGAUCCACAGACAACACGCACCCACACAGACACAGAGGGAAGGGGUUGGGAUGGGGACAGGGAAAACAGCAGGGCGGGGUAGGACCCCAGCCCCUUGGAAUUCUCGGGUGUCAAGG,-0.0782
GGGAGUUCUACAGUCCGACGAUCCAAGUCCUGUGCUACACAUCGUAUGUACCGAAUCGGGGCCCGGCCCGGGCCCGGGGAAAGUAUUAUGUUACGCCGUUCGGAUCUGCACUUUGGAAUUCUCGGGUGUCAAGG,-2.21
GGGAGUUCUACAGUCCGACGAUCCGGGAGGUGGAUUUUGUUUAUUUUUUUAGCUCAUUUCCAGGGGUGGGAAUUUUUUUUUAAUAUGUGUCAUGAAUAAAGUUGUUUUUGAAAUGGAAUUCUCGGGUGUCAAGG,0.711
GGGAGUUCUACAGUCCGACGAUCGCAGGAAGUAAAAACAAAUGGAAAUGCUUCGGAUAGUGGCUGGGGUGGGGGUUGCUAAGGAAAGGGUGGGAUGGGAGUGGGUAAAGAGUUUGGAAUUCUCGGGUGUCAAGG,1.76
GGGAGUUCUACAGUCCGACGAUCUGGGAGGUGGAUUUUGUUUAUUUUUUUAGCUCAUUUCCAGGGGUGGGAUUUUUUUUUUAAUAUGUGUCAUGAAUAAAGUUGUUUUUGAAAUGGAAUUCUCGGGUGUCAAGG,-0.0473
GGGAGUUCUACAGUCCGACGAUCUAACUUUAGAGGAGGAUCUGAUGGAUAUGGCAGUGGACGUGGAUUUGGGGAUGGCUAUAAUGGGUAUGGAGGAGGACCUAGAGGUGGCAAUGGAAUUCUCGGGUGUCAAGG,-0.164
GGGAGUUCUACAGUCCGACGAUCCAAGUCCUGUGCUACACAUCGUAUGUACCGAAUCGGGUUUUUGGGAGGGAAAGGGAAAGUAUUAUGUUACGCCGUUCGGAUCUGCACUUCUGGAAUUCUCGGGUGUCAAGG,-0.491
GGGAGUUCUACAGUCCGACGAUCACCAUGCAGGUGGACAUCUUUGGGAAGUGGGGCAAGGGGGGGAUAGGGAGGGGGGUAACACUUUGGGAACAGGUGGUCCCAGGUCGUUUCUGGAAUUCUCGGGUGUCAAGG,1.39

# Set 3
# Target: Histone acetyltransferase KAT6A, both winged helices, GST fusion (KAT6A, Homo sapiens, UniProt Q92794, residues 1-181)
# Method: protein binding microarray
# Molecule type: double-stranded DNA, one strand shown
# Medium: in vitro
# Concentration: not given
# Setting: 8-mer, flanks averaged, mean of 2 arrays, mostly near background
# Reference: not given
# Direction: higher = stronger binding
# Target sequence (chain): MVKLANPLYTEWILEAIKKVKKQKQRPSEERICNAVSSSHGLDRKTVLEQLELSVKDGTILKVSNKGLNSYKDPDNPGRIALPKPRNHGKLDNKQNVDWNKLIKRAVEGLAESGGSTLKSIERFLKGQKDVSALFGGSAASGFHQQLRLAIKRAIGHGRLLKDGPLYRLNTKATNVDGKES
Strand,E-score
CGTCGTGC,0.109
AGGGCTGC,-0.023
AAACGGTC,0.192
CAAAGGTC,-0.101
CAGGCTTC,-0.0134
AGACCGGG,0.0853
GACGGTCA,0.136
ACCGGTGG,-0.00208
CGCTTGTA,0.195
CAGACGTA,-0.0989
AGCGACAT,0.0603
CGCCCGCC,0.358
CACAACCA,0.0402
CGAAAGTA,-0.0751
CATCGACG,0.0933
AACTGGAG,-0.107
AGCCACTA,-0.227
CCATGAGG,-0.0441

# Set 4
# Target: RNA binding protein fox-1 homolog 2, RRM domain, GST-SBP tag (RBFOX2, Homo sapiens, UniProt O43251-10, residues 100-194)
# Method: RNA Bind-n-Seq
# Molecule type: RNA
# Medium: in vitro
# Concentration: 365 nM
# Setting: natural RNA segment, single round, ends assumed
# Reference: no-protein control
# Direction: higher = stronger binding
# Construct (chain): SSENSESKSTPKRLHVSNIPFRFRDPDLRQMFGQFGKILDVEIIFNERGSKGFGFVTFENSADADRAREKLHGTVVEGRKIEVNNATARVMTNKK
Strand,RBNS enrichment (R)
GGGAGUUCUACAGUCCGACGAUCUGGGGAGCCCGCAGGCCUAUGUGGCAGCGUCACCACAGGAGUUGUGGGCCUAGGAGAGGCUUUGGACCUGGGAGCCACACCUAGGAGCAAAGUCUCACCCCUUUGUCUACUGGAAUUCUCGGGUGCCAA,0.283
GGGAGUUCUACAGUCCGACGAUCGUCCCUCUGUUCACUACCCUCUUGCUCUGAGGCACGCUGGUUCUGGAGUAUAUUUCCACCUAUGAUGACAUAGCUAGACCUCCUUUUACCAACAAAACUCCAGGUUGAGAUGGAAUUCUCGGGUGCCAA,0.214
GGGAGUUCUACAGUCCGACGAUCAGCUGCUGCAGGCAGGACUCCAGCGUCAGGAUGUUGCCACUUGGAGUAUGAACAAUGGGCACGGGGUUUUCAGCCACAGUUCCCUCGAGGCCAGUGUUCAGCAGGAUCAUUGGAAUUCUCGGGUGCCAA,0.643
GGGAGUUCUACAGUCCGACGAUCGUAGCAUAUUGUGUUGGAUUGCAUUACUGGCAGAGAAAGGACAAGGUGCCAUUCAAGUCCUAGGGUGGGCUUCCAGCUGCCUUAAUAGAAGUACUCAAGUCUUUUGGGUAUGGAAUUCUCGGGUGCCAA,0.735
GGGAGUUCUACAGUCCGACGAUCUGGACAGAUUGUAAGAGUAAGUCAUUUUCCUAAAGAAUUAGAUAUUUGUCACUGCCUAUACCUGCAGUUGAGCUGAAUGGUACUCCAUGUGUUAAUAAUUGUUCUGAUGAUGGAAUUCUCGGGUGCCAA,0.447
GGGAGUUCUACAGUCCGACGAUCUCGCUGUGGGGGUUUUUUUCUCUGGGGUUCCCCUGGAAAGGCUGCAGGAACUAGGCACAAGCUCUCUGAGCCAGUCCCUCAGCCACUGAAGUCCCCCUUUCUCCUUUUUUUGGAAUUCUCGGGUGCCAA,0.239
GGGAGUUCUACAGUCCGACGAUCAAAACACAAACCUUUUGGGUUAAAAGCUUUAACAUCUAUUAGGAAGAAUUUGUCCUGUGGGUUUGGAAUCUUGGAUUUUCCCCCUUUAUGAACUGUACUGGCUGUUGACCUGGAAUUCUCGGGUGCCAA,0.469
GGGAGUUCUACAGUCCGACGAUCACGUCUGCAGCAGAGGCCCAGUAGCACCGAAUGGUGUCCAAUAAGCUCUGAGCAGUGGCAAUAGAAUGUCAACGGAUUGCAAUCAGAUGGCUCAACUCUGUGUCUCCUGAUGGAAUUCUCGGGUGCCAA,0.272

# Excerpt of the above (set 3):
Strand,E-score
GACGGTCA,0.136
ACCGGTGG,-0.00208
CGCTTGTA,0.195
CAGACGTA,-0.0989
